Published values from different studies.
Numbered parts are unrelated; each lists some results of a single study. “And” joins repeats or separate records; there may be more than shown.
UniProt P52333, sequence (whole entry, looked up): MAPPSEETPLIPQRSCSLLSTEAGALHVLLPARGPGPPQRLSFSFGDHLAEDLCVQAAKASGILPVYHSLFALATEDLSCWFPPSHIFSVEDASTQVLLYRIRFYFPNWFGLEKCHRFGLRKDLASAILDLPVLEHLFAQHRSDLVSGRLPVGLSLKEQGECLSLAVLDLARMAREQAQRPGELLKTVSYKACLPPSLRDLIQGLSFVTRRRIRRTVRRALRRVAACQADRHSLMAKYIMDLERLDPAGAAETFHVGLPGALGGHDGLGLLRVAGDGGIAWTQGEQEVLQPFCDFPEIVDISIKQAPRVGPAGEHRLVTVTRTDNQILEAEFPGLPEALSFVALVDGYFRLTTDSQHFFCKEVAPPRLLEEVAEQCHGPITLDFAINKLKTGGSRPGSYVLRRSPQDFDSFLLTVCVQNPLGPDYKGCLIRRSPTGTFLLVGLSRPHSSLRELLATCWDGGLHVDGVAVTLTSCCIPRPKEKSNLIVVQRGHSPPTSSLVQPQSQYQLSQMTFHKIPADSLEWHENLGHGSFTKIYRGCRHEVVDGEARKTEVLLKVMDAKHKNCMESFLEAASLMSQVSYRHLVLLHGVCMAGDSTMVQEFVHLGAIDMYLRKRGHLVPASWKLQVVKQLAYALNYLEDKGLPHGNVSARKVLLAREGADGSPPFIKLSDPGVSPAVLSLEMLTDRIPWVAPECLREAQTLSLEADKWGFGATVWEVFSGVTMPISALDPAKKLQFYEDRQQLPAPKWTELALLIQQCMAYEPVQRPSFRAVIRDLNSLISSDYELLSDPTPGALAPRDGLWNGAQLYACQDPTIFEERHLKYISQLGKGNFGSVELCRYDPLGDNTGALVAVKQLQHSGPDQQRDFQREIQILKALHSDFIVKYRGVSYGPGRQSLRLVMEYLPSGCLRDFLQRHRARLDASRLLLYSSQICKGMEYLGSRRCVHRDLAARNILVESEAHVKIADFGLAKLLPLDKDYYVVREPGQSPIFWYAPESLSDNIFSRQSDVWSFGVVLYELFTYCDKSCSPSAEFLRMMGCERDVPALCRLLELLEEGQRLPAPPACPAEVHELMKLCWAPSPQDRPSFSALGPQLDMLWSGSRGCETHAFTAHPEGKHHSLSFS
UniProt O43293, sequence (whole entry, looked up): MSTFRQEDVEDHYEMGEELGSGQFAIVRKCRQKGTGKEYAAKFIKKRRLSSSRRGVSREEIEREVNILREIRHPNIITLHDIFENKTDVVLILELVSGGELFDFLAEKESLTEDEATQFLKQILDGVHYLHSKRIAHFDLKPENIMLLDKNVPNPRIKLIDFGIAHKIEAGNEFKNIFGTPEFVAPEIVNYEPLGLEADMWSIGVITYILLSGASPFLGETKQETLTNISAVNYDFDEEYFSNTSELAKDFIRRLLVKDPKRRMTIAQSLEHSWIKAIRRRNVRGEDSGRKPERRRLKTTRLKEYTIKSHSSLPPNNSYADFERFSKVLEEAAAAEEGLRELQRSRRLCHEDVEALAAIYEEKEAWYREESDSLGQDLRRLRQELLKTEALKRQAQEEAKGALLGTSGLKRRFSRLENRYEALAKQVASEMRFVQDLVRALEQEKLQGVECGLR
UniProt Q16566, sequence (whole entry, looked up): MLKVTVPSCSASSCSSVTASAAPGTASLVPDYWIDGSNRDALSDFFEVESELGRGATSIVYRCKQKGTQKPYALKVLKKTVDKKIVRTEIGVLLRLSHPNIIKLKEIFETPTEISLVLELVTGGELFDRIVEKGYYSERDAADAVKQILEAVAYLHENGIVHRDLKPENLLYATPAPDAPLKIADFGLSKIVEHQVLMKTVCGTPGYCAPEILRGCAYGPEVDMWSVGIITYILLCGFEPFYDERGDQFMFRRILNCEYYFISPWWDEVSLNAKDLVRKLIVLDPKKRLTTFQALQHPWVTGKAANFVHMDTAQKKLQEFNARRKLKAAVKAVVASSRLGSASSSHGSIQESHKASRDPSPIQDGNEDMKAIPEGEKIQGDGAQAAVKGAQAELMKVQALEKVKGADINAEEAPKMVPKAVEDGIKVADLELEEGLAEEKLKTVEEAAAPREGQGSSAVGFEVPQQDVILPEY
UniProt Q8WXR4, sequence (whole entry, looked up): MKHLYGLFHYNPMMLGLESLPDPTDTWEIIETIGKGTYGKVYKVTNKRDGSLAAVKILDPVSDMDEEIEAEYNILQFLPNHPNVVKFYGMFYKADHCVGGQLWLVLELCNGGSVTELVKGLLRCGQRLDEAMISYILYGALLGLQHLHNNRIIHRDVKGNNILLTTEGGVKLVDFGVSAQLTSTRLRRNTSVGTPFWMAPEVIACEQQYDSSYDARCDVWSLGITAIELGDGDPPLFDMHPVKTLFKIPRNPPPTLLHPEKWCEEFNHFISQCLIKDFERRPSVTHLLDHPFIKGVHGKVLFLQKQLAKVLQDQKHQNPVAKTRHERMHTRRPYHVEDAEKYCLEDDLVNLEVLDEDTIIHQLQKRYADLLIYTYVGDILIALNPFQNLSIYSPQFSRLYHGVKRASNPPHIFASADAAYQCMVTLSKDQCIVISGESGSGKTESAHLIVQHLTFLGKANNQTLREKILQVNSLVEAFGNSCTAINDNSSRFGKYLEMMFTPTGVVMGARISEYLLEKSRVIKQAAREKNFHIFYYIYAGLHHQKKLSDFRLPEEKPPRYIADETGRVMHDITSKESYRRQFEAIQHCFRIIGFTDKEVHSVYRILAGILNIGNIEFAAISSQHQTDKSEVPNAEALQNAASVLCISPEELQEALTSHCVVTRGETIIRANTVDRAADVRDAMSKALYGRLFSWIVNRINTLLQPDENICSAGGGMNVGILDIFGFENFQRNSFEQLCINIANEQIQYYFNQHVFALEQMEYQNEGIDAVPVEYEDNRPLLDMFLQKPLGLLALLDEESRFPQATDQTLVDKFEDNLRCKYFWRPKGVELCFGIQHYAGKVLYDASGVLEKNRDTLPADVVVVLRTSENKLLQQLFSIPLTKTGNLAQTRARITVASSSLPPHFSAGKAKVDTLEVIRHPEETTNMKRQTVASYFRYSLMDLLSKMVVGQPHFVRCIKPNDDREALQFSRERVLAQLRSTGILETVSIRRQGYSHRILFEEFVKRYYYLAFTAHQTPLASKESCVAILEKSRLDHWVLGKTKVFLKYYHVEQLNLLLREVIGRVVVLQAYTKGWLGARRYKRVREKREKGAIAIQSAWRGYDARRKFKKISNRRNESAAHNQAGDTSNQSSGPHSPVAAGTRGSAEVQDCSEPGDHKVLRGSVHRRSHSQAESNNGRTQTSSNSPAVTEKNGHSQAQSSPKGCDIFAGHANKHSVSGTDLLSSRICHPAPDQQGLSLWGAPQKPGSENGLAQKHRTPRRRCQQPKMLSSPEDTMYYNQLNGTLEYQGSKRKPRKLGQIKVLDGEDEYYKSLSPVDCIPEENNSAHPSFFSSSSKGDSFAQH
UniProt P30291, sequence (whole entry, looked up): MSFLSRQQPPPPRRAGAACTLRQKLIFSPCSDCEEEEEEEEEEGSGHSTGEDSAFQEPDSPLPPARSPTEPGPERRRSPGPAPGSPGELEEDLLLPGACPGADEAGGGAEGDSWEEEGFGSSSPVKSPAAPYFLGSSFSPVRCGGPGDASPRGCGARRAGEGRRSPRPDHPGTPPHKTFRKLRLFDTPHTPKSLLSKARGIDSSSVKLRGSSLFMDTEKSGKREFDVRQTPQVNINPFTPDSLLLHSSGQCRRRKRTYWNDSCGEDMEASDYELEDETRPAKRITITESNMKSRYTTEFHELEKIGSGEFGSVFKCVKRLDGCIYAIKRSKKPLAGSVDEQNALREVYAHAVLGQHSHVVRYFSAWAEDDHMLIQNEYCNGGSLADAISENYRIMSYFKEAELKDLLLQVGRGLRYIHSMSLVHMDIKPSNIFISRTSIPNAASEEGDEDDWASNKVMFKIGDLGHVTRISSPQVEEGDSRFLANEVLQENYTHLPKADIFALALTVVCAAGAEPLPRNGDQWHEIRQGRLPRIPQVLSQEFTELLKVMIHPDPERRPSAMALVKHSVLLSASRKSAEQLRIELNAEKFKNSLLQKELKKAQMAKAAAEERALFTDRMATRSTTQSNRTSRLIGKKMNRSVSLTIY
UniProt Q15349, sequence (whole entry, looked up): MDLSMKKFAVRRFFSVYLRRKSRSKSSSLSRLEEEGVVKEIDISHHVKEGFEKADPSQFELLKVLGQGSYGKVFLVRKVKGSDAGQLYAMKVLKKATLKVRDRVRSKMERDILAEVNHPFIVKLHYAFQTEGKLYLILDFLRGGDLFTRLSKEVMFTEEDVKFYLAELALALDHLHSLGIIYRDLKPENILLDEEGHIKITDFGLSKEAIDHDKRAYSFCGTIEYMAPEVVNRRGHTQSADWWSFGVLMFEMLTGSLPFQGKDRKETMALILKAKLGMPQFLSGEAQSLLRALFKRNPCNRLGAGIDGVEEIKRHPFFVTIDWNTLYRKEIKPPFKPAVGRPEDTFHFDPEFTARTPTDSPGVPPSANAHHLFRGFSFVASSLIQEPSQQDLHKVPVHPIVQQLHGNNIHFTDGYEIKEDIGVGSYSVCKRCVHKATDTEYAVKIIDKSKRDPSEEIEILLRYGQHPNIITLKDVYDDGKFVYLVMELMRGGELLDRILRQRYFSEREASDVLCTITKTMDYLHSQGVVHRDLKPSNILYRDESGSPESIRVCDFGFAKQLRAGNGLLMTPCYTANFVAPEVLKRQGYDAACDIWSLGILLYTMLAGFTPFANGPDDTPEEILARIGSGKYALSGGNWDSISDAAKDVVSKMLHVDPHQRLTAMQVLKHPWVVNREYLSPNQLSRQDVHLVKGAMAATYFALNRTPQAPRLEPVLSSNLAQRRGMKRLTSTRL

Block 1
SMILES: CN(c1ccnc(CNc2nc(Nc3ccc4c(c3)CC(=O)N4)ncc2C(F)(F)F)n1)S(C)(=O)=O
Concentration: 1 µM
Quantity: remaining binding
RIOK3 (Homo sapiens, UniProt O14730); cell-free assay, competition with immobilised ligand: 8.5%
LYN (Homo sapiens, UniProt P07948); cell-free assay, competition with immobilised ligand: 80%
ROCK2 (Homo sapiens, UniProt O75116); cell-free assay, competition with immobilised ligand: 69%
KDR (Homo sapiens, UniProt P35968); cell-free assay, competition with immobilised ligand: 56%
Tyrosine-protein kinase ABL1, phosphorylated (ABL1, Homo sapiens, UniProt P00519, Y253F); cell-free assay, competition with immobilised ligand: 45%
FLT3 (Homo sapiens, UniProt P36888, ITD); cell-free assay, competition with immobilised ligand: 5.5%
CDK11A (Homo sapiens, UniProt Q9UQ88); binding, competition with immobilised ligand: 94%
CAMK1 (Homo sapiens, UniProt Q14012); cell-free assay, competition with immobilised ligand: 72%
SIK1 (Homo sapiens, UniProt P57059); competition binding: 76%
Tyrosine-protein kinase JAK3, JH1 (JAK3, Homo sapiens, UniProt P52333); cell-free assay, competition with immobilised ligand: 1.9%
EGFR (Homo sapiens, UniProt P00533, L858R/T790M); cell-free assay, competition with immobilised ligand: 56%
PIK3C3 (Homo sapiens, UniProt Q8NEB9); cell-free assay, competition with immobilised ligand: 84%
EGFR (Homo sapiens, UniProt P00533, A750P/del747-749); cell-free assay, competition with immobilised ligand: 75%
Myosin-IIIb (MYO3B, Homo sapiens, UniProt Q8WXR4); binding, competition with immobilised ligand: 68%
DAPK3 (Homo sapiens, UniProt O43293); cell-free assay, competition with immobilised ligand: 33%
CAMK4 (Homo sapiens, UniProt Q16566); cell-free assay, competition with immobilised ligand: 100%
FLT3 (Homo sapiens, UniProt P36888, D835Y); cell-free assay, competition with immobilised ligand: 2%
VRK2 (Homo sapiens, UniProt Q86Y07); cell-free assay, competition with immobilised ligand: 78%

Block 2
Cell line: mouse MPNST tumor cells
Method: high-content nuclear imaging
Refers to: cell number
Concentration: 10 µM
Time: 12 h
Setting: mean of 2 replicates
Relative to: plate mean
Direction: higher = more cells
Quantity: nuclei count
NC(=O)c1ccc(Oc2ccc(C(N)=O)cc2)cc1: 0.207 z-score
CC(=O)N[C@@H](Cc1c[nH]c2ccccc12)C(=O)OCc1cc(C(F)(F)F)cc(C(F)(F)F)c1: 0.585 z-score
COc1cccc(-c2cc(=O)c3ccccc3o2)c1N: 6 z-score
CC/C(=C(/CC)c1ccc(O)cc1)c1ccc(O)cc1: 0.823 z-score
Nc1[nH]ncc1-c1cc(Cl)ccc1Oc1cc(F)c(S(=O)(=O)Nc2cscn2)cc1Cl: -1.41 z-score
CCN1CCCC1CNC(=O)c1cc(S(N)(=O)=O)ccc1OC (stereo not drawn): -1.17 z-score
O=C(O)c1ccc(N2N=C(Cc3ccccc3)C(=Cc3ccc(-c4ccccc4F)o3)C2=O)cc1: 0.126 z-score
Cc1[nH]c(/C=C2\C(=O)Nc3ccc(S(=O)(=O)N(C)c4cccc(Cl)c4)cc32)c(C)c1C(=O)N1CCN(C)CC1: 0.409 z-score
CCC(=O)O[C@]1(C(=O)SCF)[C@H](C)C[C@H]2[C@@H]3C[C@H](F)C4=CC(=O)C=C[C@]4(C)[C@@]3(F)[C@@H](O)C[C@@]21C: 4.12 z-score and 2.2 z-score
OCCN1CCN(CCCN2c3ccccc3Sc3ccc(C(F)(F)F)cc32)CC1: -7.25 z-score
Cc1cccc(C)c1OCC(=O)N[C@@H](Cc1ccccc1)[C@@H](O)C[C@H](Cc1ccccc1)NC(=O)[C@H](C(C)C)N1CCCNC1=O: 1.3 z-score
O=C(NCc1cccc(O)c1)Nc1nc(-c2ccncc2)cs1: -1.63 z-score

Block 3
Organism: Sarcocystis neurona
Effect on: parasite growth
Concentration: 10 µM
Time: 96 h
Setting: secondary screen
Quantity: inhibition
Fc1ccc([C@@H]2CCNC[C@H]2COc2ccc3c(c2)OCO3)cc1: -14.2%
CCOC(=O)O[C@]1(C(=O)OCCl)CC[C@H]2[C@@H]3CCC4=CC(=O)C=C[C@]4(C)[C@H]3[C@@H](O)C[C@@]21C: -27.2%
C[C@@H]1C[C@H]2[C@@H]3CCC4=CC(=O)C=C[C@]4(C)[C@@]3(F)[C@@H](O)C[C@]2(C)[C@@]1(O)C(=O)CO: -20.4%
C[C@@H]1O[C@@H](OC[C@H]2O[C@@H](Oc3c(-c4ccc(O)c(O)c4)oc4cc(O)cc(O)c4c3=O)[C@H](O)[C@@H](O)[C@@H]2O)[C@H](O)[C@H](O)[C@H]1O: -18.1%
Nc1ccc(O)c(C(=O)O)c1: -23.2%
COC(=O)C1=C(C)NC(C)=C(C(=O)OCC(C)C)C1c1ccccc1[N+](=O)[O-] (stereo not drawn): -29.9%
COc1cc(C)nc(-n2nc(C)cc2OC)n1: -6.5%
CS(=O)(=O)c1ccc(C2=C(c3ccccc3)C(=O)OC2)cc1: -4.2%

Block 4
SMILES: c1ccc(-c2cnc(Nc3ccc(OCCN4CCCC4)cc3)s2)cc1
Effect on: enzyme activity
Mode: inhibitor
Concentration: 0.5 µM
Relative to: control
Quantity: remaining activity
TAOK2 (Homo sapiens, UniProt Q9UL54): 70.7%
MAP2K2 (Homo sapiens, UniProt P36507): 90.2%
FRK (Homo sapiens, UniProt P42685): 83%
CSNK1G2 (Homo sapiens, UniProt P78368): 100%
MST1R (Homo sapiens, UniProt Q04912): 107%
GSK3B (Homo sapiens, UniProt P49841): 100%
MERTK (Homo sapiens, UniProt Q12866): 87.8%
TBK1 (Homo sapiens, UniProt Q9UHD2): 87.1%
ULK2 (Homo sapiens, UniProt Q8IYT8): 78.3%
NEK1 (Homo sapiens, UniProt Q96PY6): 94.2%
ACVR1B (Homo sapiens, UniProt P36896): 101%
GRK7 (Homo sapiens, UniProt Q8WTQ7): 90.2%
JAK3 (Homo sapiens, UniProt P52333): 108%
EPHA3 (Homo sapiens, UniProt P29320): 98.7%
TEK (Homo sapiens, UniProt Q02763): 102%
FGFR3 (Homo sapiens, UniProt P22607): 98.2%
WEE1 (Homo sapiens, UniProt P30291): 92%
MAP3K5 (Homo sapiens, UniProt Q99683): 91.1%
NEK6 (Homo sapiens, UniProt Q9HC98): 102%
MAPK3 (Homo sapiens, UniProt P27361): 99.8%
FGFR1 (Homo sapiens, UniProt P11362): 75.4%
LCK (Homo sapiens, UniProt P06239): 48.6%
MAP3K14 (Homo sapiens, UniProt Q99558): 81.9%
RPS6KA2 (Homo sapiens, UniProt Q15349): 85%
CSNK1G3 (Homo sapiens, UniProt Q9Y6M4): 91.8%

Some of these lines once more (block 4):
MAP2K2 (Homo sapiens, UniProt P36507): 90.2%
FRK (Homo sapiens, UniProt P42685): 83%
CSNK1G2 (Homo sapiens, UniProt P78368): 100%
MST1R (Homo sapiens, UniProt Q04912): 107%
GSK3B (Homo sapiens, UniProt P49841): 100%
MERTK (Homo sapiens, UniProt Q12866): 87.8%
TBK1 (Homo sapiens, UniProt Q9UHD2): 87.1%
ULK2 (Homo sapiens, UniProt Q8IYT8): 78.3%
NEK1 (Homo sapiens, UniProt Q96PY6): 94.2%
